Assay results of several laboratories.
Compare with care: the assays were run in different laboratories. ± marks the error that the study gave.
Technique: steady-state kinetics
B1: enzyme (Kluyveromyces lactis, UniProt Q6CSZ6); chain MSSLDINEQRALIKSAHRYISEKLEDHFSSEFLPKALVICGSGLSGISTKIADEPKPLILSYSTIPGFKVSTVPGHSGELIFGYMNGAPVVLMNGRLHSYEGHSLAETVHPIRALHLLGSINVLIVTNAAGGINASFKAGDLMCVYDHINFPGLCGFHPLRGANFDEFGPRFLATSDAYDLELRKLLFSKKKELNIERKIHEGTYSYVHGPTFESRAESRFLRLAGTDAVGMSTVPEVVTARHCGWRVLALSLITNECVVDPPASAHDENPVPIQEGKATHEEVLENSAKASKDVQELIFSVVAEI
B2: enzyme C76S (UniProt A0A0P0CH59); chain MRIALFSDIHANLPALEAVLANMETQQLDAIYCLGDLVGYAPWPNEVVAEIRKRRIPTIAGNYDEGVGLWSPNCGSAYKTDTEKDLGQQSIDFTNNVVTEETRKYLRMLPRQLRLTFMDGSKEENKIELLLVHGSPRKINEYLFEDRPEKSFLKMMEEANADLLFFGHTHKPYHRAMPYEHEGQTRYRHAINIGSVGKPKDGDPRTGYVVVELTPESSLTQKDSIKVEFIRVPYDVETAAQAVEASPLPNEFAQMLRTA
B3: efeB (Bacillus subtilis, UniProt P39597); chain IGASGLGGLAPLVQTAAKPSKKDEKEEEQIVPFYGKHQAGITTAHQTYVYFAALDVTAKDKSDIITLFRNWTSLTQMLTSGKKMSAEQRNQYLPPQDTGESADLSPSNLTVTFGFGPGFFEKDGKDRFGLKSKKPKHLAALPAMPNDNLDEKQGGGDICIQVCADDEQVAFHALRNLLNQAVGTCEVRFVNKGFLSGGKNGETPRNLFGFKDGTGNQSTKDDTLMNSIVWIQSGEPDWMTGGTYMAFRKIKMFLEVWDRSSLKDQEDTFGRRKSSGAPFGQKKETDPVKLNQIPSNSHVSLAKSTGKQILRRAFSYTEGLDPKTGYMDAGLLFISFQKNPDNQFIPMLKALSAKDALNEYTQTIGSALYACPGGCKKGEYIAQRLLES
B4: enzyme (Caenorhabditis elegans, UniProt Q86D21); chain MSKAPTDMAPWPAFIEERIKLWDKLKAEYDAEIAAKESEPIQITLPDGKIHEGKTWRTTPFEIAERISKGLAEAAVIAKVNGAVWDLDRPFEGNAKLELLKFDDDEAKQVFWHSSAHVLGEAMERYCGGHLCYGPPIQEGFYYDMWHENRTICPDDFPKIDQIVKAAVKDKQKFERLEMTKEDLLEMFKYNEFKVRIITEKIHTPKTTVYRCGPLIDLCRGPHVRHTGKVKAMAITKNSSSYWEGKADAESLQRLYGISFPDSKQLKEWQKLQEEAAKRDHRKLGKEHDLFFFHQLSPGSAFWYPKGAHIYNKLVDFIRKQYRRRGFTEVITPNMYNKKLWETSGHWQHYSEDMFKIEVEKEEFGLKPMNCPGHCLMFGHMPHTYNELPFRFADFGVLHRNEMSGALTGLTRVRRFQQDDAHIFCRQDQISEEIKQCLDFLEYAYEKVFGFTFKLNLSTRPEGFLGNIETWDKAEADLTNALNASGRKWVLNPGDGAFYGPKIDITIQDALKRNFQCATIQLDFQLPNQFDLSYFDEKGEKQRPVMIHRAVLGSVERMTAILTESYGGKWPFWLSPRQCKIITVHESVRDYANDVKKQIFEAGFEIEYEENCGDTMNKQVRKAQLAQFNFILVIGAKEKENGTVNVRTRDNAVRGEVALDKLISKFRRFADEYVADTEKSEEWA
B5: enzyme S446A (Methanosarcina mazei, UniProt Q8PVB1); chain MSEQRSVPLREHLLALKPCRHGGLIQETSETYGIPENEILDFSANFNPLGSPFDYPENGLNFEDIIKKSCGKLLEYPDNRYVEFREAAARFVGLGVTPQSIVPGNGSTEIVRLVVESVIEKGDKVLLPWPTFGEYEMQCRITGAEPVCPSQEEVNTLPDEVLEEAKILFICNPNNPTGKLRTREELKVLAERCREHKTLLYVDEAFIELSDPSQSVADLPAENNYVFVMRSLTKDFAIPGIRMGFGIAPPAMADILNTARLSWNLGAIANNTGIALLNIEGGIDSPYLKKAREMILKEGETLKAKIDRIRGFEAGEVNVNFILVDVSKFMLNSSELTARLAARGVLVRDCVSFHGLGKNYIRVAVRTEKENDRLIAAIGDVITEWGREQAKNELQHVIEKASEEGIGGRKTCEYYPCHFEGQNCTFCFCPFYPCENEKTGGKWIQASRGGRVWSCVDCHLVHKKEIAQKILDCLMHEGDTDELVKVAWKEVMEPIL
B6: enzyme (Chlamydomonas reinhardtii, UniProt A0A2K3D977); chain ASDSVLAVWRKADAVCFDVDCTITVNDSLDLLAEFMGVKEQVEILTNKAMDGSLSLEQALEERLNIINCSPDDIKRFIKAHPPASRMAPGIKELINSLQARGKAIYLISGGFRELTLPIAAYLGIPKENVFANRMNWQWDDETGMPTKLVGFDMSEPTAHNQGKPQAIARIRQRNPYNTVVMIGDGITDLEAVQTTGGADLFIGSGVVVERPAVAREADWYVYDYTDLLRTMARYSVAMVGSGAWACAAVRMIAQNTQVDDAADEFVDEVRMWVYEEDFEGKKLTEVINQTHTNPKYFPGFDLGPNVVAVPNIVDAVADADLIVFCAPHQFLHHICKQLVGKIKPGAAAISLTKGMRVRPEGPQLISQMVRRLLGIDCCVLMGANIATDIGREQLSEAVIGYDNLDAATLFQKIFQRPYFRVNLLPDPVGAEMCGTLKNIVALGAGMVDGLGLGPNSKAAIIRQGLVEMRAFSKALYPSVRDDTFMESCGVGDLVATCYGGRNRLVACEWTKAQMEGKPRTFEDLETDLLKGQKLQGVLTSNEVQEILKVRGWESQYPLFTTVNRIINGYLPPKYVVEFVAGAKYHIRRPGTDDEEIVPVRPKRPAAAGGVATAPILAA
B7: ART1 (Homo sapiens, UniProt P52961); chain QSHPITRRDLFSQEIQLDMALASFDDQYAGCAAAMTAALPDLNHTEFQANQVYADSWTLASSQWQERQARWPEWSLSPTRPSPPPLGFRDEHGVALLAYTANSPLHKEFNAAVREAGRSRAHYLHHFSFKTLHFLLTEALQLLGSGQRPPRCHQVFRGVHGLRFRPAGPRATVRLGGFASASLKHVAAQQFGEDTFFGIWTCLGAPIKGYSFFPGEEEVLIPPFETFQVINASRLAQGPARIYLRALGKHSTYNCEYIKDKKCKSGPCHLDNS
B8: aspC A106G/A17N/A218G/A278L/A281T/A8Q/D18E/F210I/F212I/F350Y/G15S/G249S/I187A/I279A/I29V/I33V/I341V/I5L/I68L/I71L/L46M/M321L/M380L/N285S/N30D/N64T/S129T/S135A/S273G/S351L/T100S/V125I/V136I/V375I/Y244C (Escherichia coli, UniProt P00509); chain MFENLTAQPADPILSLNELFRADERPGKVDLGVGVYKDETGKTPVMTSVKKAEQYLLENETTKTYLGLDGLPEFGRCTQELLFGKGSALINDKRARTAQSPGGTGGLRVAADFLAKNTSVKRVWISNPTWPNHKAIFNSAGLEVREYAYYDAENHTLDFDALINSLNEAQAGDVVLFHGCCHNPTGADPTLEQWQTLAQLSVEKGWLPLIDIAYQGFGRGLEEDAEGLRAFAAMHKELIVASSCSKNFSLYNERVGACTLVAADSETVDRAFGQMKALARTNYSSPPAHGASVVATILSNDALRAIWEQELTDMRQRIQRLRQLFVNTLQEKGANRDFSFVIKQNGMFSYLGLTKEQVLRLREEFGVYAVASGRINVAGLTPDNMAPLCEAIVAVL
B9: enzyme S252E (Schizosaccharomyces pombe, UniProt P78804); chain MSTPYEPEFQQAYKEIVGSIESSKLFEVHPELKRVLPIISIPERVLEFRVTWEDDKGNCRVNTGYRVQFNSALGPYKGGLRFHPSVNLSILKFLGFEQIFKNALTGLPMGGGKGGSDFDPKGKSDNEIRRFSQAFMRQLFRYIGPQTDVPAGDIGVTGFVVMHMFGEYKRLRNEYSGVVTGKHMLTGGSNIRPEATGYGVVYYVKHMIEHRTKGAETLKGKRVAISGSGNVAQYAALKCIQEGAIVKSISDEKGVLIAKTAEGLVPEEIHEIMALKEKRASIADSASLCKKHHYIAGARPWTNVGEIDIALPCATQNEVSGEEAAALIKQGCRYVAEGSNMGSSAEAVEVFEKSRASGEGCWLAPGKAANAGGVAVSGLEMAQNAQFSTWTHAEVDAKLAGIMQNIFEQSTDVASKYCDSGSNNIPSLVDGANIAGFLKVATAMQAVGDWW
B10: enzyme (Bacillus subtilis, UniProt P14949); chain AIVKATDQSFSAETSEGVVLADFWAPWCGPCKMIAPVLEELDQEMGDKLKIVKIDVDENQETAGKYGVMSIPTLLVLKDGEVVETSVGFKPKEALQELVNKHL
B11: enzyme (Equus caballus, UniProt P00327); chain STAGKVIKCKAAVLWEEKKPFSIEEVEVAPPKAHEVRIKMVATGICRSDDHVVSGTLVTPLPVIAGHEAAGIVESIGEGVTTVRPGDKVIPLFTPQCGKCRVCKHPEGNFCLKNDLSMPRGTMQDGTSRFTCRGKPIHHFLGTSTFSQYTVVDEISVAKIDAASPLEKVCLIGCGFSTGYGSAVKVAKVTQGSTCAVFGLGGVGLSVIMGCKAAGAARIIGVDINKDKFAKAKEVGATECVNPQDYKKPIQEVLTEMSNGGVDFSFEVIGRLDTMVTALSCCQEAYGVSVIVGVPPDSQNLSMNPMLLLSGRTWKGAIFGGFKSKDSVPKLVADFMAKKFALDPLITHVLPFEKINEGFDLLRSGESIRTILTF
B12: spt (Sphingomonas paucimobilis, UniProt Q93UV0); chain TEAAAQPHALPADAPDIAPERDLLSKFDGLIAERQKLLDSGVTDPFAIVMEQVKSPTEAVIRGKDTILLGTYNYMGMTFDPDVIAAGKEALEKFGSGTNGSRMLNGTFHDHMEVEQALRDFYGTTGAIVFSTGYMANLGIISTLAGKGEYVILDADSHASIYDGCQQGNAEIVRFRHNSVEDLDKRLGRLPKEPAKLVVLEGVYSMLGDIAPLKEMVAVAKKHGAMVLVDEAHSMGFFGPNGRGVYEAQGLEGQIDFVVGTFSKSVGTVGGFVVSNHPKFEAVRLACRPYIFTASLPPSVVATATTSIRKLMTAHEKRERLWSNARALHGGLKAMGFRLGTETCDSAIVAVMLEDQEQAAMMWQALLDGGLYVNMARPPATPAGTFLLRCSICAEHTPAQIQTVLGMFQAAGRAVGVIG

enzyme (UniProt A0A4R3LQ44)  kcat (O=C(O)[C@H](O)[C@@H](O)[C@@H](O)CO; pH 7.5, 50 °C): 32 ± 2 s⁻¹
B1 (enzyme)  kcat (Nc1nc2c(ncn2[C@H]2C[C@H](O)[C@@H](CO)O2)c(=O)[nH]1): 2.2 ± 0.13 s⁻¹
B2 (enzyme C76S)  kcat (O=[N+]([O-])c1ccc(OP(=O)(O)O)cc1; pH 7, 37 °C, together with: Ni2+ 0.25 mM): 0.0683 ± 0.00333 s⁻¹
B3 (efeB)  kcat (CN(C)c1ccc(C(=C2C=CC(=[N+](C)C)C=C2)c2ccccc2)cc1; pH 4, 25 °C, apparent): 1.6 ± 0.2 s⁻¹
enzyme (Pseudomonas aeruginosa, UniProt Q9I5Q5)  kcat (Nc1ncnc2c1ncn2[C@@H]1O[C@H](COP(=O)(O)OP(=O)(O)OP(=O)(O)O)[C@@H](O)[C@H]1O; pH 7.5, apparent, together with: MgCl2): 46 ± 13 s⁻¹
B4 (enzyme)  kcat (C[C@@H](O)[C@H](N)C(=O)O; pH 7.5, 37 °C, together with: ATP): 1.79 ± 0.18 s⁻¹
B5 (enzyme S446A)  kcat (Nc1ncnc2c1ncn2[C@@H]1O[C@H](COP(=O)(O)OP(=O)(O)OP(=O)(O)O)[C@@H](O)[C@H]1O; pH 8.5, 25 °C, apparent, anoxic, together with: L-Thr 10 mM): 0.009 ± 0.001 s⁻¹
B6 (enzyme)  kcat (NC(=O)C1=CN([C@@H]2O[C@H](COP(=O)(O)OP(=O)(O)OC[C@H]3O[C@@H](n4cnc5c(N)ncnc54)[C@H](O)[C@@H]3O)[C@@H](O)[C@H]2O)C=CC1; pH 7.5, together with: DHAP 5 mM): 147 ± 10 s⁻¹
B7 (ART1)  kcat (CC(=O)N[C@@H](CCCNC(=N)N)C(=O)O; pH 7.5, 25 °C, HEPES 50 mM, together with: saturating NAD+): 9.6 ± 0.9 s⁻¹
enzyme (Bordetella petrii, UniProt A9I5G2)  kcat (CSCC[C@@H](NC(C)=O)C(=O)O; pH 7, 35 °C): 8.65 ± 0.583 s⁻¹
B8  kcat (O=C(O)C(=O)Cc1ccccc1; pH 7.5, 25 °C, together with: PMP 20 µM, ammonium acetate 10 mM): 0.21 s⁻¹
B9 (enzyme S252E)  kcat (NC(=O)c1ccc[n+]([C@@H]2O[C@H](COP(=O)(O)OP(=O)(O)OC[C@H]3O[C@@H](n4cnc5c(N)ncnc54)[C@H](OP(=O)(O)O)[C@@H]3O)[C@@H](O)[C@H]2O)c1; pH 7, 30 °C, apparent): 5.3 ± 0.1 s⁻¹
B10 (enzyme)  kcat (N[C@@H](CSSC[C@H](N)C(=O)N[C@H]1[C@@H](O[C@@H](CC(=O)O)C(=O)O)O[C@H](CO)[C@@H](O)[C@@H]1O)C(=O)N[C@H]1[C@@H](O[C@@H](CC(=O)O)C(=O)O)O[C@H](CO)[C@@H](O)[C@@H]1O; pH 8): 2.54 s⁻¹
B11 (enzyme)  kcat (NC(=O)c1ccc[n+]([C@@H]2O[C@H](COP(=O)(O)OP(=O)(O)OC[C@H]3O[C@@H](n4cnc5c(N)ncnc54)[C@H](O)[C@@H]3O)[C@@H](O)[C@H]2O)c1; pH 7, 30 °C, cofactor varied): 0.089 ± 0.0098 s⁻¹
enzyme (UniProt F0RRL2)  kcat (O=P(O)(O)O; pH 5.5, 37 °C, apparent): 62.7 ± 3.2 s⁻¹
B12 (spt)  kcat (CCCCCCCCCCCCCCCC(=O)SCCNC(=O)CCNC(=O)[C@H](O)C(C)(C)COP(=O)(O)OP(=O)(O)OC[C@H]1O[C@@H](n2cnc3c(N)ncnc32)[C@H](O)[C@@H]1OP(=O)(O)O; together with: PLP): 0.85 ± 0.03 s⁻¹
